# Experimental data gathered from unrelated publications.
# Numbered parts are unrelated; each lists some results of a single study.

# Series 1
# Target: RNA binding protein fox-1 homolog 2, RRM domain, GST-SBP tag (RBFOX2, Homo sapiens, UniProt O43251-10, residues 100-194)
# Method: RNA Bind-n-Seq
# Molecule type: RNA
# Medium: in vitro
# Tested at: 365 nM
# Setting: natural RNA segment, single round, ends assumed
# Relative to: no-protein control
# Reading: higher = stronger binding
Strand,RBNS enrichment (R)
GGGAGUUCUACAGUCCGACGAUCCUGCCUCUCCUUCCUCUCUGCAGCCCAAAUGGAAAACAAUUAUUUACUCCAUUGGAGGGAAAGGAAGAGUCUUAGAAUUCCUAAGGGAACCUUAGCAUAAAGGUUUUGGGUGGAAUUCUCGGGUGCCAA,0.575
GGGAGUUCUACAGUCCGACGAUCCCUCGUAUUGUACAUUUUGGGGAAAGCCUUGUGUGUAAAUCAGUGUAAACUUGGAGGAGAGAUUUUUCUAUCAUGUAGAGUAGGUAUUUUUUAUAGAUUGAAGGUUGAUCUGGAAUUCUCGGGUGCCAA,0.702
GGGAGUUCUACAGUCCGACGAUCGGGUACUGGGUUGAAGAUCCAGCCACUUAAUUUCCCCUCUGAUUGUUUUGAUAUCUGAGAGACAGAAAGGUCUCCCCAGGCUGGUCUCCAACUCCUGGCAAUCCUCCUGCUGGAAUUCUCGGGUGCCAA,0.415
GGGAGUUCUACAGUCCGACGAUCUUUUUUGUUUUUCAAGAUAGGGUUUCUCUGUGUAGCCCUGGCUGUUCUGGAACUUGCUGUAUAGUCCAGGCUGGCCUCAAACUCAGAGAUCCACCUGCCUCUGCCCCCUGUGGAAUUCUCGGGUGCCAA,0.562
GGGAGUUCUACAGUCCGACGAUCCGGGAGGGGAGUUAACUGGCAGGCAUGGCAAGGUUGCAUAUGUAAUAAAGUACAAGCUGUUAAAAAACCUGGAGAAAGCUUUUUGACUUUGAGCAGGUGGAGAACCCCACUGGAAUUCUCGGGUGCCAA,0.688
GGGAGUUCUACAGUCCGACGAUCACUCUCUUCUCCUCAGACACAGUGGCACUGCUUAUCUCCAAAUGGUGUGAUCGUCUCCUCAGUGAGCGGCGGCUCCCACUGCGCUGUGGGUAGUGUGUGACUGUGGCUGUUGGAAUUCUCGGGUGCCAA,0.431
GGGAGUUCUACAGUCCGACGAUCGCCUUUUCUGCCAGGCAGUCACCAUGCUUCCCUACCCCAGCCUGUUUCUUUUGGCUUGGUUUGGACCACAGUCCUCUGCUACCCAGGGUUUUAGAGCCCCUGCUCUAGGAUGGAAUUCUCGGGUGCCAA,0.851
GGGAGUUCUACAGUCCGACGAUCGACUUAAUCAACUAUAAAAGCUUACAAUUAGUCUUCACAAUUAUGGGAUUGUUAUACUAACUGUGUGAUUGGAACUCCAAAGACCUUUUCUUUAGCUUAAUUUUGUGUGUUGGAAUUCUCGGGUGCCAA,0.873

# Series 2
# Target: Histone acetyltransferase KAT6A, both winged helices, GST fusion (KAT6A, Homo sapiens, UniProt Q92794, residues 1-181)
# Method: protein binding microarray
# Molecule type: double-stranded DNA, one strand shown
# Medium: in vitro
# Tested at: not given
# Setting: 8-mer, flanks averaged, mean of 2 arrays, mostly near background
# Relative to: not given
# Reading: higher = stronger binding
# Residues (chain): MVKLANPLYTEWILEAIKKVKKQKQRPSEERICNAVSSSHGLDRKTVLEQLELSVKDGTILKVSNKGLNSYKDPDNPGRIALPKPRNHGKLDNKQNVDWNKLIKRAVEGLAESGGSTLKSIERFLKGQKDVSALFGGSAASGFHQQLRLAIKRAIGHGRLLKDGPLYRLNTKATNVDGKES
Strand,E-score
CGGCCGCC,0.381
AATAGGTC,0.0256
AGCTGAGC,-0.0257
ACGTGTAT,-0.0531
AGCCGGAA,0.192
TATTATGA,0.0386
GTTCTGAA,-0.0119
ATCCCATA,-0.0777
AATCGTGC,0.0758
AGTGCATC,-0.13
GCAGCAAC,0.0265
AGATGCTG,-0.244
CGAGTAGA,0.0145
CTAACATC,-0.0707
AAACACCT,-0.1
CCCATCTC,-0.163
TAGACCGA,-0.00036
CATAACGG,0.144

# Series 3
# Target: Centromere-binding protein 1, full length, N-terminal tag (CBF1, Saccharomyces cerevisiae, UniProt P17106, residues 1-351)
# Chain of UniProt P17106 (whole entry, looked up): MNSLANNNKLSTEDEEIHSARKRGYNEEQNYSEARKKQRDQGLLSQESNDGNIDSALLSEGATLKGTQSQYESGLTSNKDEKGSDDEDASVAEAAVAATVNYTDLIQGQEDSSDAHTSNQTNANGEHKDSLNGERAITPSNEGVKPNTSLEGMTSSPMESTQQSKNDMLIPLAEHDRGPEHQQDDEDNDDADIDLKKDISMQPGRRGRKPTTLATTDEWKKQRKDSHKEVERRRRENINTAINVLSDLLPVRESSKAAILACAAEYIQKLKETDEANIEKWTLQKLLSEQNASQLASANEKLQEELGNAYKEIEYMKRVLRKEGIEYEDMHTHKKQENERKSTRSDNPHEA
# Method: protein-binding microarray
# Molecule type: double-stranded DNA, one strand shown
# Medium: in vitro
# Tested at: 0.8 µM
# Setting: whole 60-bp probe, no competitor
# Reading: higher = stronger binding
Strand,fluorescence intensity [a.u.]
GAAGTGAGAACTGATCACCAGAGCCGAAAAAACTAGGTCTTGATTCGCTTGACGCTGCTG,547
CTATTTCTAATAGGTGACATTACAAAATCCAGTTTCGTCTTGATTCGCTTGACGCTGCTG,527
GAACGTCGTATATTTCTCGTGCCGAGCTTGCGCTAGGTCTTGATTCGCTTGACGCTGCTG,545
CTATATTCAAGCCAGCACATCAGCTACAGTGGATTCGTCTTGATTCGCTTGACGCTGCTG,523
GAATGTCGGAATCAGCACGCGCAAGAACCAAATTAGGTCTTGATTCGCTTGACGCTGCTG,884
CTATTCTTTTTCTTTCTGATGATAATGACAACTTTCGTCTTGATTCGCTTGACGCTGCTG,641
CTAAATGATGAAAATTCTGATGCTGGTCTCTTCTTCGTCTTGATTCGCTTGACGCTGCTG,500
GAACCGAGGTGTAACCACACCATTCTTTTCCTTTAGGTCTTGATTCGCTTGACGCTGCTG,494
CTAAAAAATTTTTATCACGTTTCTTTTTCTTGATTCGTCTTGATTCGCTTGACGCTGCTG,1910
CTATAACTAGTGCATCACCACTTGTCTAAATACTTCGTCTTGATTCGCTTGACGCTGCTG,523
CTAGCAAATACAACGCACGATTATATATACATTTTCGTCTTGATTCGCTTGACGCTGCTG,536
CCTAACTACTATAAACTCATGATATAGCTTCGTACAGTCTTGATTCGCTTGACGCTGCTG,533
CTATGTTATATTGCTCACGTAACAACTTCTATGTTCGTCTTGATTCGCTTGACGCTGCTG,593
CTATGTGCTGACTCCAATGAAATAACTCTAAAATTCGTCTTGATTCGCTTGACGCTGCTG,531
GAATCAACTATTAATGGGGTGACTACAGTGTATTAGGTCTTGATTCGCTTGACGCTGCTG,541
CTAGCTTATCGCGGTCATGTGACTAATAATTGATTCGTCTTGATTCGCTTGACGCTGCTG,16600
TGTACGAAGCTATCTATCGTGTCTATAGTAGTTAGGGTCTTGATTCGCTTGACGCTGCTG,523
CCTAACTACTATAAGCACGCAAAATAGCTTCGTACAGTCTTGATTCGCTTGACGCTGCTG,510
CTATTGTTCCGCGGAAAGCACGTGAGCGTAATCTTCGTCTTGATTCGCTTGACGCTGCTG,11200

# Series 4
# Target: Interferon regulatory factor 7, full length, phosphomimetic (IRF7, Homo sapiens, UniProt Q92985, residues 1-503, S101K/S471D/S472D/S475D/S476D/S477D/S483D/S484D/S487D)
# Chain of UniProt Q92985 (whole entry, unmodified, looked up): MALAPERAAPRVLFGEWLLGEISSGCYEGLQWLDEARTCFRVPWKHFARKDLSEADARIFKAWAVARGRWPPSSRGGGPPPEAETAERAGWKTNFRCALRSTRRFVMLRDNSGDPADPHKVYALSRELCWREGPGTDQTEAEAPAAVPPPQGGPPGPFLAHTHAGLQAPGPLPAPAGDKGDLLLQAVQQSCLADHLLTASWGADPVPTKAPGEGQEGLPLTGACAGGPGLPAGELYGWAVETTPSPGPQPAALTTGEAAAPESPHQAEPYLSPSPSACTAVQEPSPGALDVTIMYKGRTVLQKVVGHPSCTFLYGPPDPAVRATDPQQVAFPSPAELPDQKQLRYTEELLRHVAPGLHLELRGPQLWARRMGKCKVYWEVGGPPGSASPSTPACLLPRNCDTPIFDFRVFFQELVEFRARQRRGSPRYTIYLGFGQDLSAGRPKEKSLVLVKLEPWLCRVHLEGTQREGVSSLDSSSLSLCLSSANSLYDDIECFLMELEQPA
# Method: protein-binding microarray
# Molecule type: double-stranded DNA, one strand shown
# Medium: in vitro
# Tested at: 250 nM
# Setting: 60-bp whole probe
# Together with: salmon DNA 0.4 mg/ml
# Relative to: random background probes
# Reading: higher = stronger binding
# Shared flanks, not repeated: GCCTAGCAC … GTCTTGATTCGCTTGACGCTGCTG
Strand,log fluorescence
TTAGGTATCGACACTGCGTTAGTGCTA,-0.233 z-score
TTAGGGCTGGGACTGGGTTAGTGCTAG,-0.458 z-score
TCATGTTTGATAATTTTACTGTGCTAG,0.112 z-score
GGCGGTATCGGTTTCGGGACGTGCTAG,6.78 z-score
TTAGGTTTCCTTTTCATTTAGTGCTAG,5.89 z-score
GACGATTTCGGGACTGGTGACGTGCTA,-0.0146 z-score
TTAGGTTCCCTTTTTCTTTAGTGCTAG,3.16 z-score
GACGATATCAGACTGGTGACGTGCTAG,-0.166 z-score
GACGATTTCGGGATTGGAGACGTGCTA,0.29 z-score
TTAGATATCAATTTCGATTAGTGCTAG,1.64 z-score
TCAAATTTCCCTCTCCCACTGTGCTAG,0.705 z-score
GACGGTATCGGCTTCGGGACGTGCTAG,-0.0563 z-score
TTAGATTTCGGGCTTCGATTAGTGCTA,0.389 z-score
TCATATATACTATATGCAACTGTGCTA,0.781 z-score
TCATATTTTAATCACATACTGTGCTAG,0.957 z-score
TTTAGCAGACTGAGAGGAACGTGCTAG,-0.459 z-score
TTAGGTTCCGGTTTCGGTTGGTGCTAG,11.5 z-score
GACGGTTTCGGGTATCGGGTCGTGCTA,7.82 z-score

# Repeated from above (series 2):
Strand,E-score
CTAACATC,-0.0707
AATAGGTC,0.0256
TATTATGA,0.0386
GTTCTGAA,-0.0119
CCCATCTC,-0.163
AGCCGGAA,0.192
